Measured values pooled from the literature.
Each line is one published result; not all experiments were run side by side. Converted amounts (≈) assume the structure as drawn.

SMILES	tested on	test	system	conditions	scale	endpoint	value
C=C(NC(=O)c1csc(-c2nc3c(cc2O)-c2nc(cs2)C(=O)NC(C(C)O)C(=O)NC(=C(C)OC)c2nc(cs2)C(=O)NC2c4nc(cs4)C(=O)NC(COC(=O)c4c5c6c(cccc6n4O)COC(=O)C(OC4CC(C)(O)C(N(C)C)C(C)O4)C2OC5)c2nc-3cs2)n1)C(N)=O (centres unmarked)	Staphylococcus aureus	microbial growth	MSSA	clinical isolate		MIC90	0.0156 µg/mL (≈ 0.0109 µM)
Nc1ncc(-c2cc(-c3cnn(CC(F)(F)F)c3)ncc2F)nc1C(=O)NC1CNCC(F)C1 (centres unmarked)	TAOK1	KINOMEscan		1 µM	relative to: DMSO control	remaining binding	52%
CCN(CC)CC(=O)Nc1cccc(-n2cc(-c3ccc4ccc(-c5cn(-c6cccc(NC(=O)CN(CC)CC)c6)nn5)cc4c3)nn2)c1	RCC4	PCR angiogenesis array, refers to: IGF1		5 x IC50, 6 h, normoxia	relative to: untreated	fold regulation	3.4
C=CC(=O)Nc1cccc(Cn2ncc3cnc(Nc4cnn(CCOC)c4)nc32)c1	MKNK2 human	binding, KINOMEscan		100 nM	lower = stronger binding	percent of control	22%
COC1CN([C@H]2CC[C@H]([C@@]3(C)Oc4c(Cl)cc(C(=O)NCc5c(SC)cc(C)[nH]c5=O)c(C)c4O3)CC2)C1		RNA-seq, refers to: NAALAD2	human, whole blood	dose not given, 24 h	relative to: pretreatment baseline	log2 fold change	1.03
Cc1ncsc1-c1ccc(C(C)NC(=O)C2CC(O)CN2C(=O)C(NC(=O)CCCCCCCCCCN2CCCC(Nc3ncc(Cl)c(Nc4ccccc4S(=O)(=O)C(C)C)n3)C2)C(C)(C)C)cc1 (centres unmarked)	22Rv1	RNA-seq, refers to: SLC7A5 mRNA		concentration not given	relative to: DMSO	log2 fold change	-1.51
CNS(=O)(=O)Nc1nccc(Cc2c(C)c3ccc(Oc4ncccc4F)cc3oc2=O)c1F	IM95	cell viability		7 days		IC50	> 1 µM
CN1CCCNC(=O)c2cccc(c2)C(=O)NCCCN(C)CCCNc2cccc3c2C(=O)c2cccc(c2C3=O)NCCC1	SAS	RNA-Seq, refers to: ATP1B3 mRNA		1 µM, 24 h	relative to: untreated cells	log2 fold change	-2.14
